# Assay results from different studies.
# Lines come from different studies, so protocols differ. “And” joins repeats or separate records; there may be more than shown. Numbers after ± are the reported error.
# Sequence of UniProt Q9UQM7 (whole entry, looked up): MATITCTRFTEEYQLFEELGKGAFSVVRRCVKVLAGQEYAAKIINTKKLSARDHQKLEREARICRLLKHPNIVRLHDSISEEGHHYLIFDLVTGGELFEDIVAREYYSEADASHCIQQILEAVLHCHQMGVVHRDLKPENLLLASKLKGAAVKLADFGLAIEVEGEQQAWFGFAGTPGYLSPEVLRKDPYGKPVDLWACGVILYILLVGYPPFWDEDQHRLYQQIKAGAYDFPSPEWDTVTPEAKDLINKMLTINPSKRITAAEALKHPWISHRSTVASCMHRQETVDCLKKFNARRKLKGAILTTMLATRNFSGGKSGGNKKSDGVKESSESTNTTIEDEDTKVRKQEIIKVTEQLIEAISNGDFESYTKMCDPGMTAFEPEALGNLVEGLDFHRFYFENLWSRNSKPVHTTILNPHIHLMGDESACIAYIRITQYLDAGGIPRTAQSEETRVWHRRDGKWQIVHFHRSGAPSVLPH
# Sequence of UniProt Q99759 (whole entry, looked up): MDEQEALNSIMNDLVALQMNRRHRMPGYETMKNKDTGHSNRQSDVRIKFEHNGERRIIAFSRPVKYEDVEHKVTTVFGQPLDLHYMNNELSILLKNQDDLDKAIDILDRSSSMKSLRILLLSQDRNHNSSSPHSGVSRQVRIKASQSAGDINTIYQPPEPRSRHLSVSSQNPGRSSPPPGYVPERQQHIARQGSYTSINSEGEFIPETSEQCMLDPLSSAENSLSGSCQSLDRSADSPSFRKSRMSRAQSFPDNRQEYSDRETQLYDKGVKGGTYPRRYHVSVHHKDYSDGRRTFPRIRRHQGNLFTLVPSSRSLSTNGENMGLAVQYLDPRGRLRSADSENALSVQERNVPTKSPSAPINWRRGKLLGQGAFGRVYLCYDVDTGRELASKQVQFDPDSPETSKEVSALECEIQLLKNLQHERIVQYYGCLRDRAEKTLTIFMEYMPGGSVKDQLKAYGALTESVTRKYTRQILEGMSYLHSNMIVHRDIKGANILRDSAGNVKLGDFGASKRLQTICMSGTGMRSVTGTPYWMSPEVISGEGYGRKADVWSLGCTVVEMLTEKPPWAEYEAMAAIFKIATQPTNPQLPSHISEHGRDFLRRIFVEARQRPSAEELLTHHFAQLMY
# Sequence of UniProt Q9UM73 (whole entry, unmodified, looked up): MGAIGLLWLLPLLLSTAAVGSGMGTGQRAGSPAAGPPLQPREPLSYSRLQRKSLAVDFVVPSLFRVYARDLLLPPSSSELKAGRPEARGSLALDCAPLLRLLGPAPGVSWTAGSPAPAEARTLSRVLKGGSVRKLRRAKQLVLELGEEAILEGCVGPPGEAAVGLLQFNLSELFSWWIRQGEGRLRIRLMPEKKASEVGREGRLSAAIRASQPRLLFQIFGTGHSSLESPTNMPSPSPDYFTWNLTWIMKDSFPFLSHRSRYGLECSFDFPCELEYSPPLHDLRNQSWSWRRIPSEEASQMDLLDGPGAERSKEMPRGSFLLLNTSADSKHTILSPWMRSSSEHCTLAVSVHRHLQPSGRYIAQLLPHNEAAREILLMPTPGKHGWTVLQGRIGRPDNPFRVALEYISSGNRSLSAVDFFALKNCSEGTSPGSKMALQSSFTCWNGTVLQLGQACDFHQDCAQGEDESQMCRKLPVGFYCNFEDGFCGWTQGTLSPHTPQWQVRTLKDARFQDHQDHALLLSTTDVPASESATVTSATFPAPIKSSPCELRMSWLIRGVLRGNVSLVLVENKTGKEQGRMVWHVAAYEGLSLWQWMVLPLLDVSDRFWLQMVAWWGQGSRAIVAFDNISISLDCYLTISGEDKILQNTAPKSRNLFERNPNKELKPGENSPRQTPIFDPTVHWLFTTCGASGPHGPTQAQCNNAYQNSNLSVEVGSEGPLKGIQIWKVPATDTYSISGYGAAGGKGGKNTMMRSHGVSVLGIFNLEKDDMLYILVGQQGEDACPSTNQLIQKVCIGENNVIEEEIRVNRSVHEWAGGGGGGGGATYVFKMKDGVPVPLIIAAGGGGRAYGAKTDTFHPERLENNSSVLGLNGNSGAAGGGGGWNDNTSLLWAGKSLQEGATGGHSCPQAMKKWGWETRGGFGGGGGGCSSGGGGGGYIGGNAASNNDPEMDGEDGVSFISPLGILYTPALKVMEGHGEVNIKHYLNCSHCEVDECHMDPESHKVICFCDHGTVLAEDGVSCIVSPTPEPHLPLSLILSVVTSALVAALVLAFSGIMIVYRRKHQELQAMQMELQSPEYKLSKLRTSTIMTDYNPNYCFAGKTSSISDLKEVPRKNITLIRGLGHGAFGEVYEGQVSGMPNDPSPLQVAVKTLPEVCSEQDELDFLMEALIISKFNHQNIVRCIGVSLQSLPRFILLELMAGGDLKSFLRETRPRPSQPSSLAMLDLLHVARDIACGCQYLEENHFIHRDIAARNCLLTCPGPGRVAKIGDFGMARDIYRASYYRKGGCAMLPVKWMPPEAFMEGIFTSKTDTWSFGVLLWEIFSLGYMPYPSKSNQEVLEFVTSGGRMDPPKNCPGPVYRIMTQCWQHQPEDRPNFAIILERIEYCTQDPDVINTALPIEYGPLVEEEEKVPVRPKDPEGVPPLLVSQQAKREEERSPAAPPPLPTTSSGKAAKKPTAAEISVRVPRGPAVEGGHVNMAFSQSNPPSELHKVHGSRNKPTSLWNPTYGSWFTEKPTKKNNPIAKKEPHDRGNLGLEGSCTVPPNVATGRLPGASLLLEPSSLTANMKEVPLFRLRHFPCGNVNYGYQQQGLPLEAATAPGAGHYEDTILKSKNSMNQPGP
SMILES,tested on,assay,system,conditions,scale,quantity,value
CC(C)(C)C(=O)OCOP(=O)(OCOC(=O)C(C)(C)C)C1CCCN(O)C1=O (stereo not shown),IGROV-1,,,,,log TGI,-5.56 log M
COc1ccccc1-c1n[nH]c2nc(N[C@H]3CC[C@H](NS(=O)(=O)CC(C)C)CC3)ncc12,,"bead binding, competition bead pull-down, item: LINJ.35.0360",Leishmania donovani extract,10 µM,baseline: vehicle,relative abundance,1.32
CS(C)(=O)=Nc1ccc(-c2ccc(-c3nc4cc(O[C@@H]5CO[C@H]6[C@@H]5OC[C@H]6O)[nH]c4cc3F)cc2)cc1,"Calcium/calmodulin-dependent protein kinase type II subunit alpha (CAMK2A, Homo sapiens, UniProt Q9UQM7)","enzyme activity, inhibitor",,10 µM,,inhibition,-11%
CC(C)[C@H]1NC(=O)C[C@H]2/C=C/CCSSC[C@@H](NC1=O)C(=O)N[C@H](Cc1cccc3ccccc13)C(=O)NCC(=O)O2,"ALK tyrosine kinase receptor (ALK, Homo sapiens, UniProt Q9UM73, R1275Q)","enzyme activity, inhibitor",,10 µM,,inhibition,-6.6%
Cc1cc(C(=O)Nc2nc3cccc(C)c3n2[C@H]2CCCCN(C(=O)/C=C/CN(C)C)C2)ccn1,Trypanosoma brucei brucei,,2T1 wild type,0.00038 µM,,survival,102% and 103% and 100% and 117% and 108% and 90.4%
Cc1cc(Oc2nc(N3CC[C@@H](c4ccncc4)C3)ncc2F)[nH]n1,Mycobacterium tuberculosis,OD,H37Rv PurF CRISPRi knockdown,"0.01563 µM, with: anhydrotetracycline low",,normalised growth,20% and 17% and 30%
COc1ccccc1-c1n[nH]c2nc(NC3CCN(C(=O)Cc4ccc(F)cc4F)CC3)ncc12,,"bead binding, competition bead pull-down, item: LINJ.34.2410",Leishmania donovani extract,10 µM,baseline: vehicle,relative abundance,0.78
CC(C)CC(C(=O)N1CC2(CC1C#N)C(=O)Nc1ccccc12)N(C)C(=O)c1cc2c(F)cc(F)c(F)c2[nH]1 (stereo not shown),Betacoronavirus 1,viral replication,"HCT-8, OC43",0.25 µM,,inhibition,98.8%
CC[C@H](C)[C@H](NC(=O)[C@H](CO)NC(=O)[C@H](Cc1ccc(O)cc1)NC(=O)[C@H](Cc1ccc(O)cc1)NC(=O)[C@H](CC(N)=O)NC(=O)CNC(=O)[C@H](CO)NC(=O)[C@H](Cc1ccc(O)cc1)NC(=O)[C@H](CO)NC(=O)[C@H](CO)NC(=O)[C@H](CC(N)=O)NC(=O)COCCOCCNC(=O)CN1CCN(CC(=O)O)CCN(CC(=O)O)CCN(CC(=O)O)CC1)C(=O)N[C@@H](CC(C)C)C(N)=O [copper-64 labelled],,dynamic PET,"KPC mouse, pancreatic cancer model, tumor","intravenous, 0.1 min, 49 days after tamoxifen",,tumour uptake,0.115 %ID/mL
CN(C)[C@H]1C[C@@]23CC[C@@]4(O2)C(=CC[C@]2(C)[C@@H](c5ccc6ccncc6c5)CC[C@H]24)C=C3[C@@H](O)[C@@H]1O,"Mitogen-activated protein kinase kinase kinase 3 (MAP3K3, Homo sapiens, UniProt Q99759)","ATP probe labelling, inhibitor, KiNativ profiling",,1 µM,,inhibition,18.2%
O=C(O)c1ccc(-c2nc(-c3ccccc3Cl)c3sccn23)cc1,K562,"erythroid differentiation, flow cytometry",,"0.1 mM, 72 h",,CD235a-positive cells,42.2% and 77%
COc1ccccc1-c1ccncc1C(=O)Nc1nnc(OCc2ccc(Cl)cc2)s1,DLD-1 BRCA2-/-,,,"0.5 µM, mean of 3 replicates",baseline: untreated,colony survival,54%
O=C1NC2(CC2)COc2ncc(F)cc2[C@H]2COCCN2c2ccn3ncc1c3n2,,,"Sprague-Dawley rat, male, serum","oral, 20 mg/kg/day, 4 weeks daily, end of treatment",,total cholesterol,1.34 ± 0.25 mmol/L
CC(C)C[C@@H]1NC(=O)[C@@H](Cc2c[nH]c3ccccc23)NC(=O)[C@H](CCCNC(=N)N)NC(=O)[C@@H](CCC(=O)O)NC(=O)[C@H](CCC(N)=O)NC(=O)[C@@H](CCC(=O)O)NC(=O)[C@H](CCCNC(=N)N)NC(=O)[C@@H](Cc2c[nH]c3ccccc23)NC1=O,,item: LIF,"LDLr-/- mouse on Western diet, liver","dose not given, 4 weeks",,cytokine level,7.1 ± 4 pg/g tissue
Cc1ccc(N2CC3CC(C2)N3C)cc1C(=O)NC1(c2ccc3c4c(cccc24)C(=O)N3C)CC1,human coronavirus 229E,viral replication,Huh-7,3 µM,,inhibition,50%
Cc1ccc(NS(=O)(=O)c2c(C(=O)N3CCCCCC3)c(C)n(C)c2C)c(Cl)c1,Fowlpox virus,viral infection,CEF,33.33 µM,baseline: untreated,infection,98.2% and 106% and 89.2%

# For quick reference, copied from above:
SMILES,tested on,assay,system,conditions,scale,quantity,value
Cc1ccc(NS(=O)(=O)c2c(C(=O)N3CCCCCC3)c(C)n(C)c2C)c(Cl)c1,Fowlpox virus,viral infection,CEF,33.33 µM,baseline: untreated,infection,98.2% and 106% and 89.2%
CN(C)[C@H]1C[C@@]23CC[C@@]4(O2)C(=CC[C@]2(C)[C@@H](c5ccc6ccncc6c5)CC[C@H]24)C=C3[C@@H](O)[C@@H]1O,"Mitogen-activated protein kinase kinase kinase 3 (MAP3K3, Homo sapiens, UniProt Q99759)","ATP probe labelling, inhibitor, KiNativ profiling",,1 µM,,inhibition,18.2%
